Experimental data collected from several papers.
Numbers after ± are the reported error.
agrC: Receptor-histidine kinase AgrC (agrC, Staphylococcus aureus, UniProt O07911)
CNR2: Cannabinoid receptor 2 (CNR2, Homo sapiens, UniProt P34972)
Chain of UniProt P34972 (whole entry, looked up): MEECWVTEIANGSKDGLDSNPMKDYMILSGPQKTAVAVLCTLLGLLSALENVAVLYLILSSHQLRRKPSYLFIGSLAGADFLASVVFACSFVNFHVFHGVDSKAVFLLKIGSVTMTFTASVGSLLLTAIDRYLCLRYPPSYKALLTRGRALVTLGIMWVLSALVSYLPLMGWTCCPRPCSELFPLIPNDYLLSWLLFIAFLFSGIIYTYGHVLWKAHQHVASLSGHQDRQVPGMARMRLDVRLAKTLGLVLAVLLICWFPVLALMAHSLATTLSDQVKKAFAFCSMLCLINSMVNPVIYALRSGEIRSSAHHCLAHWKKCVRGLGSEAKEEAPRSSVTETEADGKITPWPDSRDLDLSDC
OPRK1: Kappa-type opioid receptor (OPRK1, Homo sapiens, UniProt P41145)
Chain of UniProt P41145 (whole entry, looked up): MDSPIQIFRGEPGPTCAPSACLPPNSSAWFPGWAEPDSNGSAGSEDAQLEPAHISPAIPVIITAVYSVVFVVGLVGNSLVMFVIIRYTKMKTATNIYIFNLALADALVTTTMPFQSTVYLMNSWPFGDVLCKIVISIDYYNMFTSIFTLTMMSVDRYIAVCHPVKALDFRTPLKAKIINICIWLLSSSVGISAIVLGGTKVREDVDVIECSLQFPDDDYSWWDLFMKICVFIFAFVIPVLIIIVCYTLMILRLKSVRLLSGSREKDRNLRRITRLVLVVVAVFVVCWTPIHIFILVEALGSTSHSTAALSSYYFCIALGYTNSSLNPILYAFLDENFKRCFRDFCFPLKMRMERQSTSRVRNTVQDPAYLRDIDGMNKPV
GPR139: Probable G-protein coupled receptor 139 (GPR139, Homo sapiens, UniProt Q6DWJ6)
Chain of UniProt Q6DWJ6 (whole entry, looked up): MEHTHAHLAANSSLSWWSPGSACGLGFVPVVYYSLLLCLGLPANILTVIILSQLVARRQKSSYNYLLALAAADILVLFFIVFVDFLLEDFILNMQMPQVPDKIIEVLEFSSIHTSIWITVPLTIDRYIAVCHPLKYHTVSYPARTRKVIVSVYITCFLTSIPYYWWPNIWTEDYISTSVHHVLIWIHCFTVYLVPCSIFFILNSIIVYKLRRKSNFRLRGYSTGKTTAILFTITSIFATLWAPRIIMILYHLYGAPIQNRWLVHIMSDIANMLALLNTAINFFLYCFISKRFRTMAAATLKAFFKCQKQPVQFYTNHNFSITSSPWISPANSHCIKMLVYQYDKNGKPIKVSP
Chain of UniProt Q07011 (whole entry, looked up): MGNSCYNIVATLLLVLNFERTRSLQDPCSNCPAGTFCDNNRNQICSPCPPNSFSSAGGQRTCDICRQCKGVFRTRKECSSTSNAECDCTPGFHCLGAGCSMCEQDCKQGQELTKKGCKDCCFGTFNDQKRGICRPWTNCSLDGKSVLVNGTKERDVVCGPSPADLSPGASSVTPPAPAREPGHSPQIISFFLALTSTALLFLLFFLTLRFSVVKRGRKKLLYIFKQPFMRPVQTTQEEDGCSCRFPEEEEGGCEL
Chain of UniProt Q9UKP6 (whole entry, unmodified, looked up): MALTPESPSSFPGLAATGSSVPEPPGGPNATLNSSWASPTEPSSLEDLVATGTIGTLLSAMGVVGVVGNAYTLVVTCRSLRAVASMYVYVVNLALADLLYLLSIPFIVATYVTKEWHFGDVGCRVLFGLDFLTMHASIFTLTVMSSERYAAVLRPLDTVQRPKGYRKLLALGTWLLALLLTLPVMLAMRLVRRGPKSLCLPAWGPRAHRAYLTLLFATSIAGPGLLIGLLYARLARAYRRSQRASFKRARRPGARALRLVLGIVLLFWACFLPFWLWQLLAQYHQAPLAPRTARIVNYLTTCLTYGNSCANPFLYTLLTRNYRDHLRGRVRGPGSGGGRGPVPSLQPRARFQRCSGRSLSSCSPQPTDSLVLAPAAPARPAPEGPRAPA
Chain of UniProt P30988 (whole entry, looked up): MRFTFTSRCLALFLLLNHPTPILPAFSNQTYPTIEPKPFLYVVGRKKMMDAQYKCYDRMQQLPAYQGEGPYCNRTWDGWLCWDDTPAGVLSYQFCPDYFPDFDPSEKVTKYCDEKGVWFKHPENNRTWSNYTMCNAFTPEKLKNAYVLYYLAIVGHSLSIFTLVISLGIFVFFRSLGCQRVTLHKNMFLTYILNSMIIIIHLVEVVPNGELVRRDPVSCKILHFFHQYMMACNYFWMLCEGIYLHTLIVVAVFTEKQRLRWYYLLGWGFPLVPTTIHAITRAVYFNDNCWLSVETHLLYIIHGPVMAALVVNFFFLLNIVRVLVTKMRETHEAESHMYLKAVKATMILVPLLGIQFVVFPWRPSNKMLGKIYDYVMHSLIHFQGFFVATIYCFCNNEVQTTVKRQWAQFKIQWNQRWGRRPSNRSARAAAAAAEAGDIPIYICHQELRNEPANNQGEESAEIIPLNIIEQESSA
Chain of UniProt P55210 (whole entry, looked up): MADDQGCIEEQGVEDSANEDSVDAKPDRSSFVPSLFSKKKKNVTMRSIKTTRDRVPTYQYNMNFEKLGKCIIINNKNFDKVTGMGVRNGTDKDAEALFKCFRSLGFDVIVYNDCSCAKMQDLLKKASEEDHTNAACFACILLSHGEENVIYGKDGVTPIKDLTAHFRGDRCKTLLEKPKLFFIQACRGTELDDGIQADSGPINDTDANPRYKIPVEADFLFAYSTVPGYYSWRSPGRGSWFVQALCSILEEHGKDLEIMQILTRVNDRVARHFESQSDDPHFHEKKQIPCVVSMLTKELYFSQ
Chain of UniProt Q16581 (whole entry, looked up): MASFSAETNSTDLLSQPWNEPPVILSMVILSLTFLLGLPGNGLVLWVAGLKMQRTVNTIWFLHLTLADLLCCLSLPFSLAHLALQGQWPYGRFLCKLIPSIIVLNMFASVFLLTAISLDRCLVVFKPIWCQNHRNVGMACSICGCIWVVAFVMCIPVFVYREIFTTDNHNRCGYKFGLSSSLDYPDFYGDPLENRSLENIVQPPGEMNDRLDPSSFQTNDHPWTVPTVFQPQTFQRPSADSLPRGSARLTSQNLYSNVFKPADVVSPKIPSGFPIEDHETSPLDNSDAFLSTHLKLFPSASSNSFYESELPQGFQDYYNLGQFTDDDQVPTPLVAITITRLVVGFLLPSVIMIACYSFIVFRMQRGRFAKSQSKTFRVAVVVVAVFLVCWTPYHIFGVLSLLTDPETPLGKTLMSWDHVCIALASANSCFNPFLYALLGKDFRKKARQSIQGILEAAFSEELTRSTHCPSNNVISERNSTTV
Chain of UniProt Q01726 (whole entry, looked up): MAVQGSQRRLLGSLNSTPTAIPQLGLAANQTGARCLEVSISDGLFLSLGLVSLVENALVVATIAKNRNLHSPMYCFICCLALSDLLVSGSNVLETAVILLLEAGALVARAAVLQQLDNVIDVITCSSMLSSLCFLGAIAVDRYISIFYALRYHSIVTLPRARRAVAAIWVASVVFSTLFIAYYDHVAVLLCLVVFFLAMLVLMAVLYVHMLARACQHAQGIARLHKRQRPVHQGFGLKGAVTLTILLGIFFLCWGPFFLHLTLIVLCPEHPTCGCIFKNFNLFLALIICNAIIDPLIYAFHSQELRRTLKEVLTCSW
Chain of UniProt Q96NY8 (whole entry, looked up): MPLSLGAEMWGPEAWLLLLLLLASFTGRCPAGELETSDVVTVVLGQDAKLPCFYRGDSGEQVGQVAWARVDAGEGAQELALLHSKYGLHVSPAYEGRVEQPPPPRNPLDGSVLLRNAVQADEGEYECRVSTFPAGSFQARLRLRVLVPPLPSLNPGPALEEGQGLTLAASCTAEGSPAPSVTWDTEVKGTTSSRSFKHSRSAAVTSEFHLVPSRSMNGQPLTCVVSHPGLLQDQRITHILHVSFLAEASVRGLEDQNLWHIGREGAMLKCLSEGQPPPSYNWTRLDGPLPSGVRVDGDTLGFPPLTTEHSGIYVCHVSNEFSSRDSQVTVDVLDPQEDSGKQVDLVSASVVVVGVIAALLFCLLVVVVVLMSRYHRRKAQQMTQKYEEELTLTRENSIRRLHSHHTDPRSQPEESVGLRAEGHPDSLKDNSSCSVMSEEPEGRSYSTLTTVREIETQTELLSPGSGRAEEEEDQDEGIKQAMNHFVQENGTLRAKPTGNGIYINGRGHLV
Chain of UniProt P25929 (whole entry, looked up): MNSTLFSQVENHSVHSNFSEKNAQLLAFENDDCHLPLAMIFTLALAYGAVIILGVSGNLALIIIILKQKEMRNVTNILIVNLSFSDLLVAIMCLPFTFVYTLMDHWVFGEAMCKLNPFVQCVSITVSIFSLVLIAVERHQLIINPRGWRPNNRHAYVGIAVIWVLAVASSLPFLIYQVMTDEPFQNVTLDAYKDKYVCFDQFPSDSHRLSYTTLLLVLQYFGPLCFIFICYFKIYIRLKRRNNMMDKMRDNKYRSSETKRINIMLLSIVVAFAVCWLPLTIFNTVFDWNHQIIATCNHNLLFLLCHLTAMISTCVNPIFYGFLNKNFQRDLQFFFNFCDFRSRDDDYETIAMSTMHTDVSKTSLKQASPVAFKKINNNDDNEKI

Compound = CC[C@H](C)[C@H](NC(=O)[C@H](Cc1ccc(O)cc1)NC(=O)[C@H](CCCNC(=N)N)NC(=O)[C@H](CCCNC(=N)N)NC(=O)[C@H](CC(C)C)NC(=O)[C@H](CC(=O)O)NC(=O)[C@H](C)NC(=O)[C@H](C)NC(=O)[C@H](Cc1ccc(O)cc1)NC(=O)[C@H](CCC(N)=O)NC(=O)[C@H](C)NC(=O)[C@H](CCSC)NC(=O)[C@H](CCC(N)=O)NC(=O)[C@H](CCC(=O)O)NC(=O)[C@@H]1CCCN1C(=O)[C@@H](NC(=O)[C@H](C)NC(=O)[C@H](CC(N)=O)NC(=O)[C@H](CC(=O)O)NC(=O)CNC(=O)[C@@H]1CCCN1C(=O)[C@H](Cc1ccc(O)cc1)NC(=O)[C@@H](NC(=O)[C@@H]1CCCN1C(=O)[C@H](CCCCN)NC(=O)[C@H](CC(C)C)NC(=O)[C@@H]1CCCN1C(=O)[C@@H](N)Cc1ccc(O)cc1)C(C)C)[C@@H](C)O)C(=O)N[C@@H](CC(N)=O)C(=O)N[C@@H](CCSC)C(=O)N[C@@H](CC(C)C)C(=O)N[C@H](C(=O)N[C@@H](CCCNC(=N)N)C(=O)N1CCC[C@H]1C(=O)N[C@@H](CCCNC(=N)N)C(=O)N[C@@H](Cc1ccc(O)cc1)C(N)=O)[C@@H](C)O; target = Neuropeptide Y receptor type 1 (NPY1R, Homo sapiens, UniProt P25929); test = agonist; EC50 = 3.16 nM
Compound = CC(C)[C@H](NC(=O)[C@@H]1CSSC(C)(C)[C@H](NC(=O)[C@@H](N)CC(=O)O)C(=O)N[C@@H](Cc2ccccc2)C(=O)N[C@@H](Cc2c[nH]c3ccccc23)C(=O)N[C@@H](CCCCN)C(=O)N[C@@H](Cc2ccc(O)cc2)C(=O)N1)C(=O)O; target = Urotensin-2 receptor (UTS2R, Homo sapiens, UniProt Q9UKP6, F127A); test = IP1 accumulation, agonist, HTRF; system = HEK293T; setting = 1 h, 37 °C, F127A mutant, 3.29; EC50 = 2.51 nM
Compound = CC[C@H](C)[C@@H]1NC(=O)[C@H](Cc2ccccc2)NC(=O)[C@H](CC(=O)O)NC(=O)[C@@H](NC(=O)[C@@H](NC(=O)[C@H](CO)NC(=O)[C@@H](N)Cc2ccc(O)cc2)[C@@H](C)O)CSC(=O)C[C@H](CCSC)NC1=O; target = agrC; system = Staphylococcus aureus cells; EC50 = > 10000 nM
Compound = CCCCCn1ccc(C(=O)N[C@H](C(N)=O)C(C)C)n1; target = CNR2; test = calcium signal, agonist; EC50 = > 10000 nM
Compound = CC[C@H](C)[C@@H]1NC(=O)C[C@H](Cc2ccccc2)NC(=O)[C@H](CC(=O)O)NC(=O)[C@@H](NC(=O)[C@@H](NC(=O)[C@H](CO)NC(=O)[C@@H](N)Cc2ccc(O)cc2)[C@@H](C)O)CSC(=O)[C@H](CCSC)NC1=O; target = agrC; system = Staphylococcus aureus cells; EC50 = > 10000 nM
Compound = CCCC[C@@H]1NC(=O)[C@H](Cc2ccc(O)cc2)NC(=O)[C@@H]2CCCN2C(=O)[C@H](CC(=O)O)NC(=O)[C@H](C)NC(=O)[C@H](Cc2ccccc2)NC(=O)[C@@H]2CSCCC(=O)N3CN(CN(C3)C(=O)CCSC[C@@H](C(=O)N[C@@H](CNC(=O)CCOCCOCCOCCN(CCOCCOCCOCCn3cc(CCC(=O)NCCC(=O)N[C@H]4CSCCC(=O)N5CN6CN(C5)C(=O)CCSC[C@H](NC(=O)[C@@H](CC(=O)O)NC(=O)[C@H](Cc5cccc7ccccc57)NC(=O)[C@@H]5CCCN5C4=O)C(=O)N[C@@H](CCSC)C(=O)N[C@@H](CCCCNC(=N)N)C(=O)N[C@@H](CC(=O)O)C(=O)N[C@@H](Cc4c[nH]c5ccccc45)C(=O)N[C@@H](CO)C(=O)N[C@@H]([C@@H](C)O)C(=O)N4CCC[C@H]4C(=O)N4C[C@H](O)C[C@H]4C(=O)N[C@@H](Cc4c[nH]c5ccccc45)C(=O)N[C@H](C(N)=O)CSCCC6=O)nn3)CCOCCOCCOCCn3cc(CCC(=O)NCCC(=O)N[C@H]4CSCCC(=O)N5CN6CN(C5)C(=O)CCSC[C@H](NC(=O)[C@@H](CC(=O)O)NC(=O)[C@H](Cc5cccc7ccccc57)NC(=O)[C@@H]5CCCN5C4=O)C(=O)N[C@@H](CCSC)C(=O)N[C@@H](CCCCNC(=N)N)C(=O)N[C@@H](CC(=O)O)C(=O)N[C@@H](Cc4c[nH]c5ccccc45)C(=O)N[C@@H](CO)C(=O)N[C@@H]([C@@H](C)O)C(=O)N4CCC[C@H]4C(=O)N4C[C@H](O)C[C@H]4C(=O)N[C@@H](Cc4c[nH]c5ccccc45)C(=O)N[C@H](C(N)=O)CSCCC6=O)nn3)C(N)=O)NC1=O)C(=O)CCSC[C@H](NC(C)=O)C(=O)N[C@@H](CC(C)(C)C)C(=O)N1CCC[C@H]1C(=O)N[C@@H](CCC(=O)O)C(=O)N[C@H](C)C(=O)N1CCC[C@H]1C(=O)N[C@@H](Cc1ccc(O)cc1)C(=O)N2; target = Tumor necrosis factor receptor superfamily member 9/Nectin-4 (Homo sapiens, UniProt Q07011+Q96NY8); test = reporter gene, agonist; system = HT-1376 coculture with reporter cells; EC50 = 1.56 nM
Compound = CC[C@H](C)[C@@H]1NC(=O)[C@H](Cc2ccccc2)NC(=O)[C@H](C)NC(=O)[C@@H](NC(=O)[C@@H](NC(=O)[C@H](CO)NC(=O)[C@@H](N)Cc2ccc(O)cc2)[C@@H](C)O)CSC(=O)[C@H](CCSC)NC1=O; target = agrC; system = Staphylococcus aureus cells; EC50 = > 10000 nM
Compound = Cc1cc(C(c2ccc(Cl)cc2)c2ccc(Cl)cc2)sc1C(=O)N[C@@H](CCCNC(=N)N)C(=O)O; target = C3a anaphylatoxin chemotactic receptor (C3AR1, Homo sapiens, UniProt Q16581); test = cAMP, agonist, luciferase; EC50 = 2.82 nM
Compound = CC(=O)N[C@@H](CC(=O)O)C(=O)N[C@@H](CCC(=O)O)C(=O)N[C@H](C(=O)N[C@H](C=O)CC(=O)O)C(C)C; target = Caspase-7 (CASP7, Homo sapiens, UniProt P55210); EC50 = 1.1 nM
Compound = O=C(Cc1ccc(Cl)c(Cl)c1)N1CCNC2COCC(N3CCCC3)C21 (centres unmarked); target = OPRK1; EC50 = 25 ± 2.8 nM
Compound = CC[C@H](C)[C@H]1CC(=O)N[C@@H](CCSC)C(=O)SC[C@H](NC(=O)[C@@H](NC(=O)[C@H](CO)NC(=O)[C@@H](N)Cc2ccc(O)cc2)[C@@H](C)O)C(=O)N[C@@H](CC(=O)O)C(=O)N[C@@H](Cc2ccccc2)C(=O)N1; target = agrC; system = Staphylococcus aureus cells; EC50 = > 10000 nM
Compound = CC[C@H](C)[C@H](NC(=O)[C@H](Cc1ccccc1)NC(=O)[C@H](CCC(=O)O)NC(=O)[C@H](CCCNC(=N)N)NC(=O)[C@@H](NC(=O)[C@H](C)NC(=O)[C@H](CCC(=O)O)NC(=O)[C@H](CCC(=O)O)NC(=O)[C@H](CCC(=O)O)NC(=O)[C@H](CC(C)C)NC(=O)[C@H](Cc1ccc(O)cc1)NC(=O)[C@H](CCCCN)NC(=O)[C@H](CO)NC(=O)[C@H](CC(C)C)NC(=O)[C@H](CC(=O)O)NC(=O)[C@H](CO)NC(=O)[C@@H](NC(=O)[C@H](Cc1ccccc1)NC(=O)[C@@H](NC(=O)CNC(=O)[C@H](CCC(N)=O)NC(=O)[C@@H](CO)NC(=O)[C@@H](N)Cc1c[nH]cn1)[C@@H](C)O)[C@@H](C)O)C(C)C)C(=O)N[C@@H](C)C(=O)N[C@@H](Cc1c[nH]c2ccccc12)C(=O)N[C@@H](CC(C)C)C(=O)N[C@@H](CCCCN)C(=O)N[C@@H](CC(N)=O)C(=O)NCC(=O)NCC(=O)N1CCC[C@H]1C(=O)N[C@@H](CO)C(=O)N[C@@H](Cc1ccc(O)cc1)C(=O)N[C@@H](CO)C(=O)N[C@@H](CCSC)C(=O)N[C@@H](CCC(=O)O)C(=O)N[C@@H](Cc1c[nH]cn1)C(=O)N[C@@H](Cc1ccccc1)C(=O)N[C@@H](CCCNC(=N)N)C(=O)N[C@@H](Cc1c[nH]c2ccccc12)C(=O)NCC(=O)N[C@@H](CCCCN)C(=O)N1CCC[C@H]1C(=O)N[C@H](C(N)=O)C(C)C; target = Melanocyte-stimulating hormone receptor (MC1R, Homo sapiens, UniProt Q01726); test = cAMP, agonist, TR-FRET; EC50 = 14.7 nM
Compound = CC(C)C[C@H](NC(=O)[C@H](Cc1ccccc1)NC(=O)CNC(=O)CNC(=O)[C@@H](N)Cc1ccc(O)cc1)C(=O)N[C@@H](CCCNC(=N)N)C(=O)N[C@@H](CCCCN)C(=O)N[C@@H](Cc1ccc(O)cc1)C(=O)N1CCC[C@H]1C(=O)O; target = GPR139; test = calcium response, agonist, BRET; system = HEK293T/17, transfected; EC50 = 17200 ± 930 nM
Compound = O=C(O)CCn1c(=O)oc2cc(Cl)c(Cl)cc21; target = CNR2; test = agonist; EC50 = > 100000 nM
Compound = CC[C@H](C)[C@H](NC(=O)[C@H](CCCNC(=N)N)NC(=O)[C@H](CCCNC(=N)N)NC(=O)[C@H](CC(C)C)NC(=O)[C@H](Cc1ccccc1)NC(=O)CNC(=O)CN)C(=O)N[C@@H](CCCNC(=N)N)C(=O)N1CCC[C@H]1C(=O)N[C@@H](CCCCN)C(=O)N[C@@H](CC(C)C)C(=O)N[C@@H](CCCCN)C(=O)N[C@@H](Cc1c[nH]c2ccccc12)C(=O)N[C@@H](CC(=O)O)C(=O)N[C@@H](CC(N)=O)C(=O)N[C@@H](CCC(N)=O)C(=O)O; target = GPR139; test = calcium response, agonist, BRET; system = HEK293T/17, transfected; EC50 = 24300 ± 4010 nM
Compound = O=C(Cc1ccc(F)c(Cl)c1)N1CCN[C@@H]2COC[C@H](N3CCCC3)[C@H]21 (relative stereo); target = OPRK1; EC50 = 390 ± 100 nM
Compound = CC[C@H](C)[C@@H](C(=O)N[C@@H](CC(C)C)C(=O)N[C@@H](CO)C(=O)N[C@@H](CO)C(=O)N[C@H](C(=O)N[C@@H](CC(N)=O)C(=O)N[C@H](C(=O)NCC(=O)N[C@@H](CO)C(=O)N[C@@H](CC(N)=O)C(=O)N[C@H](C(=O)N[C@@H](Cc1ccc(O)cc1)C(N)=O)[C@@H](C)O)C(C)C)[C@@H](C)O)N(C)C(=O)[C@H](C)NC(=O)CN(C)C(=O)[C@H](Cc1ccccc1)NC(=O)[C@H](CC(N)=O)NC(=O)[C@H](CC(N)=O)NC(=O)[C@H](CO)NC(=O)[C@H](CO)NC(=O)[C@H](CCCNC(=N)N)NC(=O)[C@@H](NC(=O)[C@H](CC(C)C)NC(=O)[C@H](Cc1ccccc1)NC(=O)[C@H](CC(N)=O)NC(=O)[C@H](C)NC(=O)[C@H](CC(C)C)NC(=O)[C@H](CCCNC(=N)N)NC(=O)[C@H](CCC(N)=O)NC(=O)[C@@H](NC(=O)[C@H](C)NC(=O)[C@@H]1CSSC[C@H](NC(=O)[C@H](CCCCN)NC(=O)CC[C@H](NC(=O)CCCCCCCCCCCCCCCCCCC(=O)O)C(=O)O)C(=O)N[C@@H](CC(N)=O)C(=O)N[C@@H]([C@@H](C)O)C(=O)N[C@@H](C)C(=O)N[C@@H]([C@@H](C)O)C(=O)N1)[C@@H](C)O)C(C)C; target = Calcitonin receptor (CALCR, Homo sapiens, UniProt P30988); test = cAMP, agonist; EC50 = 13.2 nM

Excerpt of the above:
Compound = CC[C@H](C)[C@@H]1NC(=O)[C@H](Cc2ccccc2)NC(=O)[C@H](CC(=O)O)NC(=O)[C@@H](NC(=O)[C@@H](NC(=O)[C@H](CO)NC(=O)[C@@H](N)Cc2ccc(O)cc2)[C@@H](C)O)CSC(=O)C[C@H](CCSC)NC1=O; target = agrC; system = Staphylococcus aureus cells; EC50 = > 10000 nM
Compound = CCCCCn1ccc(C(=O)N[C@H](C(N)=O)C(C)C)n1; target = CNR2; test = calcium signal, agonist; EC50 = > 10000 nM
Compound = CC[C@H](C)[C@@H]1NC(=O)C[C@H](Cc2ccccc2)NC(=O)[C@H](CC(=O)O)NC(=O)[C@@H](NC(=O)[C@@H](NC(=O)[C@H](CO)NC(=O)[C@@H](N)Cc2ccc(O)cc2)[C@@H](C)O)CSC(=O)[C@H](CCSC)NC1=O; target = agrC; system = Staphylococcus aureus cells; EC50 = > 10000 nM
